Assay results gathered from unrelated publications.
Protocols differ between the studies behind these lines. Several values in a cell are separate wells, animals, samples, runs or records. Numbers after ± are the reported error. Values after ≈ are worked out from the molar mass of the structure shown.

SMILES | target or system | assay | system | conditions | scale | endpoint | result
CCn1nc(C)c(CN2CCCC(C(=O)c3cccc(OC(C)C)c3)C2)c1C (centres unmarked) | Trypanosoma cruzi | reporter mRNA translation, inhibitor, refers to: Renilla luciferase mRNA | cell-free extract | concentration not given, test 1 | relative to: positive over negative control | translation activity | 111% and 114%
CC(C)[C@H](NC(=O)[C@H](Cc1c[nH]c2ccccc12)NC(=O)[C@H](CCCNC(=N)N)NC(=O)[C@H](CCCNC(=N)N)NC(=O)[C@@H](NC(=O)[C@@H](NC(=O)[C@H](CCCNC(=N)N)NC(=O)[C@@H](NC(=O)[C@@H](NC(=O)[C@H](CCCNC(=N)N)NC(=O)[C@H](CCCNC(=N)N)NC(=O)[C@@H](NC(=O)[C@H](Cc1c[nH]c2ccccc12)NC(=O)[C@H](CCCNC(=N)N)NC(=O)[C@H](CCCNC(=N)N)NC(=O)[C@@H](NC(=O)[C@H](CCCNC(=N)N)NC(=O)[C@H](CCCNC(=N)N)NC(=O)[C@@H](NC(=O)[C@H](Cc1c[nH]c2ccccc12)NC(=O)[C@H](CCCNC(=N)N)NC(=O)[C@@H](N)CCCNC(=N)N)C(C)C)C(C)C)C(C)C)C(C)C)C(C)C)C(C)C)C(C)C)C(=O)N[C@@H](CCCNC(=N)N)C(=O)N[C@@H](CCCNC(=N)N)C(=O)O |  |  | CD1 mouse, plasma | intravenous, 15 mg/kg, 24 h, [14C]-labelled compound |  | creatinine | < 0.2 mg/dL
CC(C)(O)c1ncc([S@](N)(=O)=NC(=O)Nc2c3c(cc4c2CCC4)CCC3)s1 |  | refers to: Gastrointestinal disorders | healthy human volunteers | oral, 50 mg twice daily, 14 days, enteric-coated tablet |  | subjects with adverse events | 86%
CCCn1ncc(CN2CCCC(C(=O)c3cccc(OC(C)C)c3)C2)c1C (centres unmarked) | Trypanosoma cruzi | reporter mRNA translation, inhibitor, refers to: Renilla luciferase mRNA | cell-free extract | concentration not given, test 3 | relative to: positive over negative control | translation activity | 102%
Cc1cccc(-c2cccc(C)n2)n1.Cc1cccc(-c2cccc(C)n2)n1.F[P-](F)(F)(F)(F)F.F[P-](F)(F)(F)(F)F.[Ru+2].c1cc2ccc3ccc(-c4nc5c6cccnc6c6ncccc6c5[nH]4)c4ccc(c1)c2c34 |  |  | aerated acetonitrile | 298 K | relative to: Ru(bpy)3(PF6)2 | singlet oxygen quantum yield | 0
CC[C@H](C)[C@H](NC(=O)[C@H](CCCCN)NC(C)=O)C(=O)N[C@@H](C)C(=O)N[C@@H](C)C(=O)N[C@@H](CC(C)C)C(=O)N[C@@H](CCCCN)C(=O)N[C@@H](CCC(=O)O)C(=O)N[C@@H](CCCCN)C(=O)N[C@H](C(=O)N[C@@H](C)C(=O)N[C@@H](C)C(=O)N[C@@H](CC(C)C)C(=O)N[C@@H](CCCCN)C(=O)N[C@@H](CCC(=O)O)C(=O)N[C@@H](CCCCN)C(=O)N[C@H](C(=O)N[C@H]1CSCc2ccc(cc2)CSC[C@@H](C(=O)NCC(=O)N[C@@H](Cc2c[nH]c3ccccc23)C(N)=O)NC(=O)[C@H](CCCCN)NC(=O)[C@H](CC(C)C)NC(=O)[C@H](C)NC1=O)[C@@H](C)CC)[C@@H](C)CC |  | tryptophan fluorescence titration | DOPC/DOPE/cholesterol 2:1:1 liposomes in PBS |  |  | ΔG of membrane partitioning | -7.17 kcal/mol
CC1Cc2ccccc2N1C(=O)CN1CCN(Cc2ccccc2)CC1 (centres unmarked) |  |  | female NMRI mice, whole blood | intraperitoneal, 10 mg/kg free base, 15 min | relative to: brain over blood | brain to blood ratio | 9.01 and 10
Cc1c(Cc2ccc(Cl)c(O[C@H](C)C(=O)O)c2)c2ccc(C(=O)N[C@@H](C)c3ccc(C(C)(C)C)cc3)cc2n1CC(C)C |  |  | mouse liver microsomes | 1 µM, added: microsomes 1 mg/mL |  | half-life | > 1 h
O=C(Nc1ccc(C(F)F)cc1)[C@H](CC1CCCCC1)Nc1nn2c(=O)ccnc2s1 |  |  | Caco-2 | 5 µM, 2 h, pH 7.4 |  | efflux ratio | 18
O=C(c1ccccc1)N1C(c2ccc(OCC3CCN(CCCF)C3)cc2)c2ccc(O)cc2CC12CC2 (centres unmarked) |  |  | C57BL/6J mouse, plasma | oral, 25 mg/kg |  | AUC(0-t) | 2760 ng·h/mL
CN(O)C(=O)CCC(=O)NCCCN(CCCCN(CCCNC(=O)CCC(=O)N(C)O)C(=O)CCC(=O)N(C)O)C(=O)CCC(=O)N(C)O.[89Zr] |  | radio-TLC | aqueous buffer | 7 d, pH 5, 37 °C, 89Zr-labelled complex, added: DTPA 100-fold excess |  | intact complex | 98.2 ± 1%
COc1cc(N2CCN(C(=O)C3CCCN3)CC2)ccc1Nc1ncc(Cl)c(Nc2ccccc2P(C)(C)=O)n1 (centres unmarked) |  |  | nude mice, NCI-H3122 xenograft | intraperitoneal, 10 mg/kg every other day, day 9 |  | body weight | 26.5 g and 24.7 g and 24.5 g and 22.3 g and 25.4 g
CSCC[C@H](N)C(=O)N[C@@H](CO)C(=O)N[C@H](C(=O)N[C@@H](C)C(=O)NCC(=O)N[C@@H](CC(C)C)C(=O)N[C@@H](CCCCN)C(=O)N[C@@H](CCCCN)C(=O)N[C@@H](CCC(N)=O)C(=O)N[C@@H](Cc1c[nH]c2ccccc12)C(=O)N[C@@H](Cc1ccc(O)cc1)C(=O)N[C@@H](CCCCN)C(=O)N[C@@H](C)C(=O)N[C@@H](CO)C(=O)N[C@@H](CCC(N)=O)C(=O)N[C@@H](CC(C)C)C(=O)N[C@H](C(=O)N[C@@H](CO)C(=O)N[C@@H](CCC(=O)O)C(=O)N[C@@H](CCCCN)C(=O)N[C@H](C(=O)NCC(=O)NCC(=O)N[C@@H](C)C(N)=O)C(C)C)C(C)C)C(C)C |  | circular dichroism titration | 100% DOPS liposomes | 50 µM, pH 7.4, 20 °C |  | ΔG of binding | -7.4 kcal/mol
O=C(O)CN1CCN(CC(=O)O)CCN(CC(O)CN(CC(O)CN2CCN(CC(=O)O)CCN(CC(=O)O)CCN(CC(=O)O)CC2)C[C@H](O)[C@@H](O)[C@H](O)[C@H](O)CO)CCN(CC(=O)O)CC1 (some centres unmarked) |  | pH-potentiometry, refers to: Gd2(LH-1), alcoholic OH deprotonation |  | 25 °C, 0.15 M NaCl |  | log K | 9.24
CCc1cnc(NC(=O)c2cc(S(=O)(=O)N3CCOCC3)ccc2N(C)C2CCCC2)s1 |  |  | mouse, serum | 10 mg/kg, 3 doses |  | Potassium | 9.2 mEq/L
O=c1c2ccccc2[se]n1CCCCCCn1[se]c2ccccc2c1=O |  | shake-flask, RP-HPLC | DMSO | 24 h, 25 °C |  | solubility | 33.8 ± 0.7 mg/mL (≈ 70.7 mM)
O=C(Nc1cnccc1-c1ccc([18F])nc1)c1ccnc(NC(=O)C2CC2)c1 |  | PET imaging | FVB/NJ mice, both sexes, liver | intravenous, 10 min post-injection, P-gp inhibited, added: tariquidar 15 mg/kg iv, 2 h before |  | SUV | 7.99
